{"data": "Published values from different studies", "note": "Every numbered part comes from another study and shows a few of its results, in no order."}
{"data": "Series 1", "target": "Sal-like protein 4, full length isoform B (SALL4, Homo sapiens, UniProt Q9UJQ4-2, residues 1-616)", "method": "universal PBM", "molecule type": "double-stranded DNA, one strand shown", "matrix": "in vitro", "tested at": "not given", "notes": "8-mer, flanks averaged, mean of replicates", "direction": "higher = stronger binding"}
{"Sequence": "AACTAAGG", "E-score": 0.0207}
{"Sequence": "CAGGCGAG", "E-score": -0.244}
{"Sequence": "AGGTGACA", "E-score": 0.0285}
{"Sequence": "CGCCCCGC", "E-score": -0.336}
{"Sequence": "GCCGAGGC", "E-score": -0.241}
{"Sequence": "ACGAATTC", "E-score": 0.163}
{"Sequence": "GCTAACAA", "E-score": 0.102}
{"Sequence": "ACTGCATG", "E-score": 0.0208}
{"Sequence": "ACCCGTCG", "E-score": -0.253}
{"Sequence": "AGATGGTA", "E-score": 0.137}
{"Sequence": "CCTAGAAC", "E-score": -0.0578}
{"Sequence": "AGTAGGCG", "E-score": -0.157}
{"data": "Series 2", "target": "Prothrombin, mature alpha-thrombin (F2, Homo sapiens, UniProt P00734)", "method": "aptamer microarray, sandwich", "molecule type": "DNA with 2'F-ANA", "matrix": "in vitro", "tested at": "200 nM", "notes": "whole 15-mer aptamer, many near background", "with": "Cy3 exosite-II aptamer, 400 nM", "direction": "higher = stronger binding", "sequence": "GGTTGGTGTGGTTGG"}
{"Modification": "2'F-ANA at 1 5 8 9 10 11 14", "mean fluorescence intensity [a.u.]": 47.8}
{"Modification": "2'F-ANA at 2 3 4 6 7 8 10 12 13 15", "mean fluorescence intensity [a.u.]": 252}
{"Modification": "2'F-ANA at 1 4 8 9 10 11 14", "mean fluorescence intensity [a.u.]": 49.2}
{"Modification": "2'F-ANA at 1 3 4 7 14 15", "mean fluorescence intensity [a.u.]": 75.6}
{"Modification": "2'F-ANA at 1 2 3 4 5 6 7 9 12 15", "mean fluorescence intensity [a.u.]": 108}
{"Modification": "2'F-ANA at 5 8 9 10 11 12 14", "mean fluorescence intensity [a.u.]": 45.3}
{"Modification": "2'F-ANA at 3 10 11 13 14 15", "mean fluorescence intensity [a.u.]": 369}
{"data": "Series 3", "target": "Centromere-binding protein 1, full length, N-terminal tag (CBF1, Saccharomyces cerevisiae, UniProt P17106, residues 1-351)", "method": "protein-binding microarray", "molecule type": "double-stranded DNA, one strand shown", "matrix": "in vitro", "tested at": "0.8 µM", "notes": "whole 60-bp probe, no competitor", "direction": "higher = stronger binding", "constant ends, left off below": "… GTCTTGATTCGCTTGACGCTGCTG", "sequence of UniProt P17106 (whole entry, looked up)": "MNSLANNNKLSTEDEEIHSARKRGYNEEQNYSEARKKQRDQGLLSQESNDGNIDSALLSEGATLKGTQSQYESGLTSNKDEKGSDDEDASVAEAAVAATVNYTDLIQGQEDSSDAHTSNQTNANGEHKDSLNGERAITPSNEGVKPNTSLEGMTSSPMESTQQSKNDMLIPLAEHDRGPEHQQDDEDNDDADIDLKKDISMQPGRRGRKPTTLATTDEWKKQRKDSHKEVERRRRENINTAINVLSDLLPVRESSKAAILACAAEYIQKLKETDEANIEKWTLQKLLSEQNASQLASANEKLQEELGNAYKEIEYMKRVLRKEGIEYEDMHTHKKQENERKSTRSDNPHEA"}
{"Sequence": "CTATATACTGAAACGCACGTCGCTGATGATTTCTTC", "fluorescence intensity": "511 a.u."}
{"Sequence": "GAAACATCCTGTTGTCATGCGACTAAAGGTATTTAG", "fluorescence intensity": "618 a.u."}
{"Sequence": "CTAAATGTAAGTGATTGCGTGAAAGCTTAAAGTTTC", "fluorescence intensity": "523 a.u."}
{"Sequence": "CTAACAAGCCAGGCGCACGCACCTTAATAAGTTTTC", "fluorescence intensity": "518 a.u."}
{"Sequence": "TGTACGAAGCTATAACACATGCTTATAGTAGTTAGG", "fluorescence intensity": "601 a.u."}
{"Sequence": "GAATTCAAATGTGCTCAGCTGTGATTCATTGAATAG", "fluorescence intensity": "504 a.u."}
{"Sequence": "CTAAATCAGTTAGGTGTCATGATATTGATACATTTC", "fluorescence intensity": "602 a.u."}
{"Sequence": "GAATGCCTGCAGACCCACGTCTACAAATTTTGGTAG", "fluorescence intensity": "505 a.u."}
{"data": "Further values, each from its own experiment"}
{"Molecule": "PhoQ, residues 284 288 289 292 302 303 SLKLQV", "target": "PhoP, residues 12 14 15 18 19 IQFRS (Escherichia coli, UniProt P23836)", "test": "Sort-seq, measured: YFP reporter", "test system": "E. coli", "conditions": "PhoQ-PhoP variant library, with: 10 µM Mg2+", "scale": "reference: high Mg2+ state, higher = stronger signaling", "measurement": "fold induction", "result": 50.4}
